Measurements pooled from the literature.
Parts stem from different laboratories: compare values within a part only.

Study 1
Target: Ras GTPase-activating protein-binding protein 1, full length (G3BP1, Homo sapiens, UniProt Q13283)
Chain of UniProt Q13283 (whole entry, looked up): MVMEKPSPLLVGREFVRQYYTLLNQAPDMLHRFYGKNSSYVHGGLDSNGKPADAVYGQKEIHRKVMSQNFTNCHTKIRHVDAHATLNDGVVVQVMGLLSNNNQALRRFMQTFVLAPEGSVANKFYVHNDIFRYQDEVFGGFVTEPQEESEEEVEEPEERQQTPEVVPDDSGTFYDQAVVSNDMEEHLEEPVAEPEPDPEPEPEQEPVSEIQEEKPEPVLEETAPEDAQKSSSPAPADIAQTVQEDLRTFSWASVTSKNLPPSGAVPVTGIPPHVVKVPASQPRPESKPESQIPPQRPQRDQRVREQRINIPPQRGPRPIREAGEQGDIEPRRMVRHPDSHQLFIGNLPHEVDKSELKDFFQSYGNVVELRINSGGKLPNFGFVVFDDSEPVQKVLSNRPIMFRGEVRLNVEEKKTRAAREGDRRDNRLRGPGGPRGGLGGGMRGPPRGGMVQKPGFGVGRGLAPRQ
Method: RNA Bind-n-Seq
Molecule type: RNA
Matrix: in vitro
Concentration: 200 nM
Setting: whole 134-nt RNA, ends assumed
Added: 150 mM KCl
Reference: input library
Direction: higher = stronger binding
Quantity: log2 enrichment
GGGAGUUCUACAGUCCGACGAUCGUCCUGUGCUACACAUCGUAUGUACCGAAUCGGGUUUUUGGGGUUUUUGGGGUUUUUGGAAAGUAUUAUGUUACGCCGUUCGGAUCUGCAUGGAAUUCUCGGGUGUCAAGG: -0.243
GGGAGUUCUACAGUCCGACGAUCUGGGAGGUGGAUUUUGUUUAUUUUUUUAGCUCAUUUCCAGGGGUGGGAACUUUUUUUUAAUAUGUGUCAUGAAUAAAGUUGUUUUUGAAAUGGAAUUCUCGGGUGUCAAGG: 0.244
GGGAGUUCUACAGUCCGACGAUCCCUGUGCUACACAUCGUAUGUACCGAAUCGGCCCCCCGGGGCCCCCCGGGGCCCCCCGGGAAAGUAUUAUGUUACGCCGUUCGGAUCUGCUGGAAUUCUCGGGUGUCAAGG: -0.91

Study 2
Target: Centromere-binding protein 1, full length, N-terminal tag (CBF1, Saccharomyces cerevisiae, UniProt P17106, residues 1-351)
Chain of UniProt P17106 (whole entry, looked up): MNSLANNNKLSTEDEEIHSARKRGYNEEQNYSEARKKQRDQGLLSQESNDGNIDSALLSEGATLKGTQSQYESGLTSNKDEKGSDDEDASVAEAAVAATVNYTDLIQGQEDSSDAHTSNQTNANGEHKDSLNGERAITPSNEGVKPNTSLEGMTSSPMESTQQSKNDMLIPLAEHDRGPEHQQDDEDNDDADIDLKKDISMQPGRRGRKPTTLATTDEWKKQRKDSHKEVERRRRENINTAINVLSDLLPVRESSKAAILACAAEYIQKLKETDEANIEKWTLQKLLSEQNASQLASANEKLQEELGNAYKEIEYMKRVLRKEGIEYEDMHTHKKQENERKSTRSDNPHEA
Method: protein-binding microarray
Molecule type: double-stranded DNA, one strand shown
Matrix: in vitro
Concentration: 0.8 µM
Setting: whole 60-bp probe, no competitor
Direction: higher = stronger binding
Quantity: fluorescence intensity
CTAAATTGGTTCCATCACCTTCTTTTCTGGTGTTTCGTCTTGATTCGCTTGACGCTGCTG: 562 a.u.
GAAATTGATTGACTCTTCGTGATAACTATTTCTTAGGTCTTGATTCGCTTGACGCTGCTG: 536 a.u.
CTAAGTGTTAGATCTGAGGTGGTGTTCACATTATTCGTCTTGATTCGCTTGACGCTGCTG: 538 a.u.

Study 3
Target: RING finger protein unkempt homolog, zinc fingers 1-6, GST-SBP tag (UNK, Homo sapiens, UniProt Q9C0B0, residues 30-357)
Chain of UniProt Q9C0B0 (30-357, looked up): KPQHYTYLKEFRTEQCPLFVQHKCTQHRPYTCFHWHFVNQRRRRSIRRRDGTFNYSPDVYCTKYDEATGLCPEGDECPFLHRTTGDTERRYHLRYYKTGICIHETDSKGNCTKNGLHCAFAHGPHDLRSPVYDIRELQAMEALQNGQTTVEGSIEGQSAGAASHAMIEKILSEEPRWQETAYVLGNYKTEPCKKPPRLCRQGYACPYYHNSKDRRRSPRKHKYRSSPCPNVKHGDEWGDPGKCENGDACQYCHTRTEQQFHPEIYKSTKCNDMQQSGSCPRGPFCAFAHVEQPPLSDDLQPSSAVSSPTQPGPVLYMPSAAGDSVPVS
Method: RNA Bind-n-Seq
Molecule type: RNA
Matrix: in vitro
Concentration: not given
Setting: RNA with constant flanks, human and mouse sites, ends assumed
Reference: input RNA pool
Direction: higher = stronger binding
Quantity: bound/input enrichment
GGGAGUUCUACAGUCCGACGAUCAACCUCCUUCCUACUGGUUUAGACUACACUUACAACAAGGAAAAUGCCCCUCGUGUGACCAUAGAUUGAGAUUUAUACCACAUACCACACAUAGCCACAGAAACAUCAUCUUGAAAUAAACAACAGAGGAUUGAGCAUCA: 2.74 ratio
GGGAGUUCUACAGUCCGACGAUCUGUGUGUGUCAGACACUUGGCAUUUCACCUGAAGAAAAAUUUGUUAUUACAACAACAAGUAGGAAAGAAAUUACCUGUGAUAAUUUUGAUGAAACUGUUAAAGAUGGAGUCACCUUAUACCAACAGAGGAUUGAGCAUCA: 0.234 ratio
GGGAGUUCUACAGUCCGACGAUCACUACUUGGAUGGAUACUAAAGGACCCAAGACAGCUGAAUCAGAAAGUAAAGAAAACAACAAUACAAGAAUUGACUCCAUGAUGAGUUCUGUGCAGAAAGAUAACUUUUACCCACAUAAGCAACAGAGGAUUGAGCAUCA: 0.233 ratio
GGGAGUUCUACAGUCCGACGAUCGCCUCACCGUUAGACCAGAACGGAAGCUUCAAUGUUGUUAUUAAAGAGGAACCUCUAGAUGAUUAUGACUACGAACUUGGUGAGUGCCCAGAAGGGGUCACUGUGAAACAGGAAGAGACACAACAGAGGAUUGAGCAUCA: 0.386 ratio

Single results of other studies
PhoQ, residues 284 288 289 292 302 303 ALVSVA — fold induction (PhoP, residues 12 14 15 18 19 NMSFL (Escherichia coli, UniProt P23836); Sort-seq, item: YFP reporter; E. coli; PhoQ-PhoP variant library, added: 10 µM Mg2+; reference: high Mg2+ state, higher = stronger signaling): 13.7

For quick reference, copied from above (study 2):
CTAAATTGGTTCCATCACCTTCTTTTCTGGTGTTTCGTCTTGATTCGCTTGACGCTGCTG: 562 a.u.
